# Results of several laboratories.
# Chains of the proteins cited; added tags and fusions are not shown. Lines headed by an entry give the natural chain unless they say otherwise; changes in a name come on top. Residues count along the entry.
# UniProt Q9Y2R2, whole entry: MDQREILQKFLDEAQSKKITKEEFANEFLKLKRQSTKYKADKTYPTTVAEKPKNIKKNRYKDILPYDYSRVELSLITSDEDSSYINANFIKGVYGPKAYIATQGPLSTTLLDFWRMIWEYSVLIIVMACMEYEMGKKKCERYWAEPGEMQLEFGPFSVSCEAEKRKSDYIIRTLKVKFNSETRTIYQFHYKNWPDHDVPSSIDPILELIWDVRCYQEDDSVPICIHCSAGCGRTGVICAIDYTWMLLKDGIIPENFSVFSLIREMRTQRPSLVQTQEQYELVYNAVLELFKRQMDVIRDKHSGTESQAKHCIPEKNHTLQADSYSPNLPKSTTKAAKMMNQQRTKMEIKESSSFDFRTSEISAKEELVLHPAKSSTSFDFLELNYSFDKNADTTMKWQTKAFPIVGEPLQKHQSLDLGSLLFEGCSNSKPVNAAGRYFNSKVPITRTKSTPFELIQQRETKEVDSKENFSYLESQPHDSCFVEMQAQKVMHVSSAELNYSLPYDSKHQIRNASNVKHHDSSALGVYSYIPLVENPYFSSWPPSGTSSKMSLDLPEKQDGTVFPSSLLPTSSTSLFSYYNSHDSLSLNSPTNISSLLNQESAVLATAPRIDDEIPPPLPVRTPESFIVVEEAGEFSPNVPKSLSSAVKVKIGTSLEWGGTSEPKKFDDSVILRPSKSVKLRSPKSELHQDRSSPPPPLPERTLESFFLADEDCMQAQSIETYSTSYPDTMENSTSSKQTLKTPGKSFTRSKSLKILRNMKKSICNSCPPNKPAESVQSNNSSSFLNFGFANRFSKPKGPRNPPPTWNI
# UniProt P04150, whole entry: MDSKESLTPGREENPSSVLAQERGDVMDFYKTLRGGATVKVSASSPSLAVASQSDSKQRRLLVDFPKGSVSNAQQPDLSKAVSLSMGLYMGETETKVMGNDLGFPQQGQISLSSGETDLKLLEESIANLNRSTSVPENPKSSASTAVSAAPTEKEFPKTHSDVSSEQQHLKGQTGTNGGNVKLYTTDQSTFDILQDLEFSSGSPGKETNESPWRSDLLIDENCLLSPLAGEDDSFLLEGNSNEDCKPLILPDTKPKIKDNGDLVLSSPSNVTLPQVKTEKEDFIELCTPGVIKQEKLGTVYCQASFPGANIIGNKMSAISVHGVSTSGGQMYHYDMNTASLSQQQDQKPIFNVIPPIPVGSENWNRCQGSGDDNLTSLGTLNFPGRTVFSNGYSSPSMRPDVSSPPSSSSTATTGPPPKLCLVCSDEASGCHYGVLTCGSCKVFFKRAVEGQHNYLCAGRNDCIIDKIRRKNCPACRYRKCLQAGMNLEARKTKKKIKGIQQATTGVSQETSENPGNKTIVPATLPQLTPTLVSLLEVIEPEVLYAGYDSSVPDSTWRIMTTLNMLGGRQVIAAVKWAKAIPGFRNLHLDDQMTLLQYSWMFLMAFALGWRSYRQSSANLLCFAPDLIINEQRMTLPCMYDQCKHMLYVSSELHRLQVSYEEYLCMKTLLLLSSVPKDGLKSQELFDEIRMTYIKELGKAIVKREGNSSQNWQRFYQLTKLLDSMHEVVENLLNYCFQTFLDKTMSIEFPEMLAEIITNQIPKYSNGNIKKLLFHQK
# UniProt P18825, whole entry: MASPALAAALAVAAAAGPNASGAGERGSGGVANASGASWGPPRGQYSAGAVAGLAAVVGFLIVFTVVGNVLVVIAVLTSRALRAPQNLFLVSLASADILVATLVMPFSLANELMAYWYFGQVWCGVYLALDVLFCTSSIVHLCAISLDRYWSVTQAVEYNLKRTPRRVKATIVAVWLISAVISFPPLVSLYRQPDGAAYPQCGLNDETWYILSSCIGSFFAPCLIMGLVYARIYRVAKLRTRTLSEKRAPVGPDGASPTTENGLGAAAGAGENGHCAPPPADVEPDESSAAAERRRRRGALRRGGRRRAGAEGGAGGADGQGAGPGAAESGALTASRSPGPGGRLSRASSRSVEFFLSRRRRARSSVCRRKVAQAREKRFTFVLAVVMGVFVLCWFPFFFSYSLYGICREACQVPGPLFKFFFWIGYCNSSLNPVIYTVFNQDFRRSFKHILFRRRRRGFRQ
# UniProt P18031, whole entry: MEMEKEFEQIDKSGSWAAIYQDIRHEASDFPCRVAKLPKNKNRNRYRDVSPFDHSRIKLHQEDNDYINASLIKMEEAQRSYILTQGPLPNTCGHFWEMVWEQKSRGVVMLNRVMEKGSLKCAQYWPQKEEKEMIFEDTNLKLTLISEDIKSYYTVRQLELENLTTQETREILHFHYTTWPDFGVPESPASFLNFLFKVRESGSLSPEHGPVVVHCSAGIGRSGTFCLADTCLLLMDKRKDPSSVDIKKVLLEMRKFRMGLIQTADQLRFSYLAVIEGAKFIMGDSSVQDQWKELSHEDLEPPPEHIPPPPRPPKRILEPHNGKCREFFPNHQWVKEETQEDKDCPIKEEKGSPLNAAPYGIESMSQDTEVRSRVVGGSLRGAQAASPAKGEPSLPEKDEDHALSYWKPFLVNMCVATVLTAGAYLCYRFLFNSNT
# UniProt O14618, whole entry: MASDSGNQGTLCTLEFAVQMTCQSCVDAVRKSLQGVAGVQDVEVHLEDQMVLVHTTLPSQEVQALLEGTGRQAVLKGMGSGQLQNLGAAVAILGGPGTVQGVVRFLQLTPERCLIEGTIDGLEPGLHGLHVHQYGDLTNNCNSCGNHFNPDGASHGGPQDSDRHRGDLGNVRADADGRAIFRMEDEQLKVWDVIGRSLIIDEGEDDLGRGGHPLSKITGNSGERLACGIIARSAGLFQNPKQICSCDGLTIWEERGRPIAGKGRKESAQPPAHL
# UniProt Q9NRA0, whole entry: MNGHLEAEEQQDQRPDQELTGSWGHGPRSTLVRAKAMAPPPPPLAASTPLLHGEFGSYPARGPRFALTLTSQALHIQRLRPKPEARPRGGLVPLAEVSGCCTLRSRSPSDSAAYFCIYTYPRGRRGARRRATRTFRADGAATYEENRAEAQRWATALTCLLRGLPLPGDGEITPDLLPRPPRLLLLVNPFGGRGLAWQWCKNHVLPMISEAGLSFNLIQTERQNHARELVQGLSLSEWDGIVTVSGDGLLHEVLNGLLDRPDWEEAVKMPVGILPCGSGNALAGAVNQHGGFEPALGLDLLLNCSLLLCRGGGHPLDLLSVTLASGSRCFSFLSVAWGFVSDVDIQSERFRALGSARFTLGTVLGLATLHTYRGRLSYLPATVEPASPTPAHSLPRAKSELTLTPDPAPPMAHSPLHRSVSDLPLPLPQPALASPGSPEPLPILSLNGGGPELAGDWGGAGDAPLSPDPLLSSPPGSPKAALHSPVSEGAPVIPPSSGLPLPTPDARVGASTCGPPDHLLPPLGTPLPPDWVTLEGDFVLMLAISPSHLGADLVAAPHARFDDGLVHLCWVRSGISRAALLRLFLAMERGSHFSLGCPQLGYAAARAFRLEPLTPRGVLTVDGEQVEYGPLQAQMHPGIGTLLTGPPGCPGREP
# UniProt P10688, 11-140 limits assumed: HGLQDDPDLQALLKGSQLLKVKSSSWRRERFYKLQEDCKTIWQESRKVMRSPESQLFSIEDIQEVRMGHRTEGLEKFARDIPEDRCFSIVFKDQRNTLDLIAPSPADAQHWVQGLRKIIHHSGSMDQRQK
# UniProt P07948, whole entry: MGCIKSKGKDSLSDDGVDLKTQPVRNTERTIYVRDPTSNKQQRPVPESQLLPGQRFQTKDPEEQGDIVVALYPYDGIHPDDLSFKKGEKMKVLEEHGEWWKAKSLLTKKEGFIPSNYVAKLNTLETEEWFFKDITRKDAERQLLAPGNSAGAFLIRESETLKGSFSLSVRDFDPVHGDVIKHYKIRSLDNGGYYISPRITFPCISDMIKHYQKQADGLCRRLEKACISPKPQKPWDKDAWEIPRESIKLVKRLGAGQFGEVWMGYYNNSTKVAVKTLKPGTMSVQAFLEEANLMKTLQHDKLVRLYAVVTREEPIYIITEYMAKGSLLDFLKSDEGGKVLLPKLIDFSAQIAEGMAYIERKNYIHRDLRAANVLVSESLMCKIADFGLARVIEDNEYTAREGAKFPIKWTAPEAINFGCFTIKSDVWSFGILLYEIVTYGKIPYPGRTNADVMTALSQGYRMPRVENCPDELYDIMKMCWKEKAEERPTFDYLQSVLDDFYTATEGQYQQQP
# UniProt Q15256, 22-657 limits assumed: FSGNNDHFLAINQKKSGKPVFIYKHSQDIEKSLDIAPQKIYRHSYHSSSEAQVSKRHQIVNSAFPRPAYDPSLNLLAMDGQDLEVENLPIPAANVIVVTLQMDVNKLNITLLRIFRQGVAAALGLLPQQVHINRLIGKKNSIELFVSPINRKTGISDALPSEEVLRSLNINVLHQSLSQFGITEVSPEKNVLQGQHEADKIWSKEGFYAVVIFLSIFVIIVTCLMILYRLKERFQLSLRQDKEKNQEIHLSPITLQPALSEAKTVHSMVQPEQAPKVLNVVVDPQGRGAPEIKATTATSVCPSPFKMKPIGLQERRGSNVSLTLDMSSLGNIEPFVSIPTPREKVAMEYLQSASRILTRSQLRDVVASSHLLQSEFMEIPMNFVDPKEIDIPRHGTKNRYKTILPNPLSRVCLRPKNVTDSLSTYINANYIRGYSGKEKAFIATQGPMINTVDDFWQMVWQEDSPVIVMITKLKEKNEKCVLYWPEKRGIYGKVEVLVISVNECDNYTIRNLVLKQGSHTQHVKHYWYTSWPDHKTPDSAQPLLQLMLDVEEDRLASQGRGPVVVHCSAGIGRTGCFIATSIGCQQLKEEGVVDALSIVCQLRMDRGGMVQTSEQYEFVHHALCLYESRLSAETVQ
# ± gives the spread as reported.
# PTPN22: Tyrosine-protein phosphatase non-receptor type 22 (PTPN22, Homo sapiens, UniProt Q9Y2R2)
# NR3C1: Glucocorticoid receptor (NR3C1, Homo sapiens, UniProt P04150)
Compound,target,assay,test system,conditions,endpoint,result
CN1CC[C@@H]2C[C@@H]1c1cc(-c3ccc(C(F)(F)F)cc3)ccc12,"Alpha-2C adrenergic receptor (ADRA2C, Homo sapiens, UniProt P18825)",radioligand competition binding,,,Ki,0.755 µM
O=c1/c(=C/c2ccc(-c3cc(Cl)cc(Cl)c3)o2)sc2nc3cc(Br)cnc3n12,PTPN22,"phosphatase activity, inhibitor",,added: OMFP,IC50,> 100 µM
COc1cc(CC(=O)NCC(NC(=O)C(CCCNC(=O)c2cccc(I)c2)NC(=O)C(Cc2ccc(C(F)(F)P(=O)(O)O)cc2)NC(=O)c2ccc(C)c(Br)c2)C(N)=O)ccc1O (stereo not shown),"Tyrosine-protein phosphatase non-receptor type 1 (PTPN1, Homo sapiens, UniProt P18031)","enzyme activity, inhibitor",,,Ki,0.63 µM
Cc1cc(C)c2nc3s/c(=C\c4ccc(-c5ccccc5C(=O)O)o4)c(=O)n3c2c1,PTPN22,"phosphatase activity, inhibitor",,added: OMFP,IC50,30 µM
Nc1c(C(=O)Nc2c(F)cc(F)cc2Br)sc2nc3c(cc12)CCC3,"Copper chaperone for superoxide dismutase (CCS, Homo sapiens, UniProt O14618)","binding, FRET",,pH 7.1,Kd,~8.2 µM
O=c1/c(=C/c2ccccc2Cl)sc2nc3cc(Br)cnc3n12,PTPN22,"phosphatase activity, inhibitor",,added: OMFP,IC50,> 100 µM
CC(=O)OCC(=O)[C@]12OC(C)(C)O[C@@H]1C[C@H]1[C@H]3CC=C4C[C@@H](O)CC[C@]4(C)[C@H]3CC[C@]12C,NR3C1,"nuclear translocation, agonist, enzyme fragment complementation",,,EC50,> 9 µM
O=C1C(=Cc2ccc(O)c(O)c2)Oc2ccccc21,"Sphingosine kinase 2 (SPHK2, Homo sapiens, UniProt Q9NRA0)","inhibitor, TLC",,,Ki,18 µM
CC(=O)O[C@H]1CC[C@@]2(C)C(=CC[C@@H]3[C@@H]4CC[C@H](c5cc(C(F)(F)F)n(C(C)=O)n5)[C@]4(C)CC[C@@H]32)C1,NR3C1,"nuclear translocation, agonist, enzyme fragment complementation",,,EC50,> 9 µM
CCCCCCCC(=O)OCC(COP(=O)(O)OC1C(O)C(O)C(OP(=O)(O)O)C(OP(=O)(O)O)C1O)OC(=O)CCCCCCC (stereo not shown),"1-phosphatidylinositol 4,5-bisphosphate phosphodiesterase delta-1, PH domain (Plcd1, Rattus norvegicus, UniProt P10688)","membrane binding, sedimentation",LUVs without PtdSer,,Kd,1.3 ± 0.2 µM
C[C@@]12CC[C@@H]3[C@H](CCC4=CC(=O)CC[C@]43C)[C@@H]1CC[C@@H]2C(=O)COS(=O)(=O)c1ccc(Br)cc1,NR3C1,"nuclear translocation, agonist, enzyme fragment complementation",,,EC50,> 9 µM
CCN1CCN(Cc2ccc(NC(=O)c3ccc(C)c(Oc4ncnc5cc(OC)c(OC)cc45)c3)cc2C(F)(F)F)CC1,"Tyrosine-protein kinase Lyn (LYN, Homo sapiens, UniProt P07948)","enzyme activity, Z'-LYTE",,added: ATP at Km,IC50,0.0001 µM
C[C@]12CC[C@H]3c4ccc(O)cc4CC[C@@H]3[C@H]1C/C(=N/O)[C@H]2O,NR3C1,"nuclear translocation, agonist, enzyme fragment complementation",,,EC50,> 9 µM
CC(C)C[C@H]1NC(=O)[C@H]([C@@H](C)O)NC(=O)[C@@H](CN)NC(=O)[C@H](CCCNC(=N)N)NC(=O)[C@@H](Cc2ccccc2)NC(=O)[C@H](Cc2ccccc2)NC1=O,20S proteasome core particle,"proteasome activity, activator",,,EC50,4.1 µM
O=c1/c(=C/c2ccc(-c3ccccc3[N+](=O)[O-])o2)sc2nc3cc(Br)cnc3n12,"Receptor-type tyrosine-protein phosphatase R (PTPRR, Homo sapiens, UniProt Q15256)","phosphatase activity, inhibitor",,added: OMFP,IC50,41 µM
CS[C@]12C(=O)C[C@]3(C)[C@@H](CC[C@@]3(O)C(=O)CO)[C@@H]1CCC1=CC(=O)CC[C@]12C,NR3C1,"nuclear translocation, agonist, enzyme fragment complementation",,,EC50,> 9 µM
